Measurements collected from several papers.
Compare with care: the assays were run in different laboratories. Numbers after ± are the reported error.

Structure (SMILES)	target or system	assay	test system	setting	scale	quantity	result
CC[C@H](C)[C@H](NC(=O)[C@H](CCCCN)NC(=O)CNC(=O)[C@H](CC(C)C)NC(=O)[C@H](Cc1ccccc1)NC(=O)[C@H](CCCCN)NC(=O)[C@H](CO)NC(=O)[C@H](Cc1ccccc1)NC(=O)[C@H](Cc1c[nH]c2ccccc12)NC(=O)[C@H](CCC(N)=O)NC(=O)[C@@H](NC(=O)[C@H](Cc1ccccc1)NC(=O)CCCCCNC(=O)CN1CCN(CC(=O)O)CCN(CC(=O)O)CCN(CC(=O)O)CC1)C(C)C)C(=O)N[C@@H](CCC(=O)O)C(=O)N1CCC[C@H]1C(=O)N[C@@H](CC(=O)O)C(=O)N[C@H](C(=O)N[C@@H](CO)C(=O)N[C@@H](CCC(N)=O)C(=O)N[C@H](C(=O)N[C@@H](CCC(N)=O)C(=O)N[C@@H](CC(=O)O)C(=O)N1CCC[C@H]1C(=O)N[C@@H](CC(N)=O)C(=O)N[C@@H](CC(=O)O)C(=O)N[C@@H](CCC(N)=O)C(=O)N[C@@H](Cc1ccc(O)cc1)C(=O)N[C@@H](CCC(=O)O)C(=O)N1CCC[C@H]1C(=O)N[C@@H](Cc1ccccc1)C(=O)O)C(C)C)C(C)C [copper-64 labelled]		dynamic PET	mouse both sexes, CT26 tumour, checkpoint inhibitor-treated, tumour	intravenous, 100 µCi/mouse, 170 s		SUVmean	2.32 SUV
Cc1ccc(N2CCN(C)[C@H](C)C2)cc1C(=O)N[C@H](C)c1cc(-c2cnn(C)c2)nc2ccccc12	African green monkey cells			7.812 µM		viability	100%
N#[11C]c1ccc(-c2csc(NN=C3CCCC3)n2)cc1			C57BL/6 mouse, male	intravenous, 3 MBq, 30 min		uptake in large intestine with contents	1.46 ± 0.3 %ID/g
CCCC[C@H]1C(=O)N(C)[C@@H](CCCC)C(=O)N[C@@H](CCCNC(=O)CN2CCN(CC(=O)O)CCN(CC(=O)O)CCN(CC(=O)O)CC2)C(=O)N[C@H](C(=O)NCC(N)=O)CSCC(=O)N[C@@H](Cc2ccc(O)cc2)C(=O)N(C)[C@@H](C)C(=O)N[C@@H](CC(N)=O)C(=O)N2CCC[C@H]2C(=O)N[C@@H](Cc2c[nH]cn2)C(=O)N[C@@H](CC(C)C)C(=O)N(C)CC(=O)N[C@@H](Cc2c[nH]c3ccccc23)C(=O)N[C@@H](CO)C(=O)N[C@@H](Cc2c[nH]c3ccccc23)C(=O)N1C [gallium-68 labelled]			NOD/SCID mice with CHO-hPD-L1 xenograft, blood	60 min post injection		tissue uptake	12.3 ± 1.03 %ID/g
CCN(CCCCOc1ccc(CCC(=O)N2CCC(Cc3ccccc3)CC2)cc1OC)Cc1ccccc1			Sprague-Dawley rats, both sexes, faeces	oral gavage, 25 mg/kg, 0 to 48 h		excreted amount	87500 ± 3240 ng
CC(C)C[C@H](NC(=O)[C@H](Cc1ccc(O)cc1)NC(=O)[C@H](C)NC(=O)[C@H](CC(N)=O)NC(=O)[C@H](CC(C)C)NC(=O)[C@H](C)NC(=O)[C@@H](NC(=O)[C@H](CCCCN)NC(=O)CNC(=O)[C@@H](NC(=O)[C@H](CCCCN)NC(=O)[C@H](CCCCN)NC(=O)CNC(=O)[C@@H](NC(=O)[C@H](Cc1c[nH]cn1)NC(=O)[C@@H](NC(=O)[C@H](C)NC(=O)[C@H](CCCCN)NC(=O)[C@H](CCCCN)NC(=O)[C@H](Cc1ccccc1)NC(=O)[C@H](Cc1c[nH]c2ccccc12)NC(=O)[C@H](CCCCN)NC(=O)[C@H](CCCCN)NC(=O)[C@H](CC(C)C)NC(=O)CN)C(C)C)C(C)C)C(C)C)C(C)C)C(N)=O			zebrafish embryos 28 hpf, E3 medium	1 h		acute toxic concentration	5 µM
CC(C)=CCC/C(C)=C/CCn1cc(CC(P(=O)(O)O)P(=O)(O)O)nn1			CD-1 mouse, lung	intravenous, 0.5 mg/kg, 168 h, single dose		concentration	not detected
CSCC[C@H](N)C(=O)N[C@@H](C)C(=O)N[C@@H](CCCNC(=N)N)C(=O)N[C@@H](CCCNC(=N)N)C(=O)N[C@@H](CC(=O)O)C(=O)N[C@@H](CCCCN)C(=O)N[C@H](C(=O)N[C@@H](CC(=O)O)C(=O)N[C@@H](Cc1ccccc1)C(=O)N[C@@H](C)C(=O)N[C@@H](CCCNC(=N)N)C(=O)N[C@@H](CCCNC(=N)N)C(=O)N[C@@H](CCCNC(=N)N)C(=O)N[C@@H](CCCNC(=N)N)C(=O)NCCCCCC(=O)NCCCCC(NC(=O)CCCCCNC(=O)[C@H](CCCNC(=N)N)NC(=O)[C@H](CCCNC(=N)N)NC(=O)[C@H](CCCNC(=N)N)NC(=O)[C@H](CCCNC(=N)N)NC(=O)[C@H](C)NC(=O)[C@H](Cc1ccccc1)NC(=O)[C@H](CC(=O)O)NC(=O)[C@@H](NC(=O)[C@H](CCCCN)NC(=O)[C@H](CC(=O)O)NC(=O)[C@H](CCCNC(=N)N)NC(=O)[C@H](CCCNC(=N)N)NC(=O)[C@H](C)NC(=O)[C@@H](N)CCSC)[C@@H](C)O)C(=O)NCCCCC(NC(=O)C(CCCCNC(=O)CCCCCNC(=O)[C@H](CCCNC(=N)N)NC(=O)[C@H](CCCNC(=N)N)NC(=O)[C@H](CCCNC(=N)N)NC(=O)[C@H](CCCNC(=N)N)NC(=O)[C@H](C)NC(=O)[C@H](Cc1ccccc1)NC(=O)[C@H](CC(=O)O)NC(=O)[C@@H](NC(=O)[C@H](CCCCN)NC(=O)[C@H](CC(=O)O)NC(=O)[C@H](CCCNC(=N)N)NC(=O)[C@H](CCCNC(=N)N)NC(=O)[C@H](C)NC(=O)[C@@H](N)CCSC)[C@@H](C)O)NC(=O)CCCCCNC(=O)[C@H](CCCNC(=N)N)NC(=O)[C@H](CCCNC(=N)N)NC(=O)[C@H](CCCNC(=N)N)NC(=O)[C@H](CCCNC(=N)N)NC(=O)[C@H](C)NC(=O)[C@H](Cc1ccccc1)NC(=O)[C@H](CC(=O)O)NC(=O)[C@@H](NC(=O)[C@H](CCCCN)NC(=O)[C@H](CC(=O)O)NC(=O)[C@H](CCCNC(=N)N)NC(=O)[C@H](CCCNC(=N)N)NC(=O)[C@H](C)NC(=O)[C@@H](N)CCSC)[C@@H](C)O)C(N)=O)[C@@H](C)O (some centres unmarked)			C57BL/6 mouse female, small intestine	6 h	baseline: total dose	tissue distribution	11.4%
Cc1ccc(N2CCN(C)CC2)cc1C(=O)N[C@H](C)c1cc(-c2cnn(C)c2)nc2ccccc12	African green monkey cells			15.62 µM		viability	95.4%
N=C(N)NCCC[C@H](NC(=O)[C@H](CCCNC(=N)N)NC(=O)[C@H](CCCNC(=N)N)NC(=O)[C@H](CCC(N)=O)NC(=O)[C@H](CCCNC(=N)N)NC(=O)[C@H](CCCNC(=N)N)NC(=O)[C@H](CCCCN)NC(=O)[C@H](CCCCN)NC(=O)[C@H](CCCNC(=N)N)NC(=O)[C@H](Cc1c[nH]c2ccccc12)NC(=O)[C@H](Cc1c[nH]c2ccccc12)NC(=O)[C@@H](N)CSSC[C@H](N)C(=O)N[C@@H](Cc1c[nH]c2ccccc12)C(=O)N[C@@H](Cc1c[nH]c2ccccc12)C(=O)N[C@@H](CCCNC(=N)N)C(=O)N[C@@H](CCCCN)C(=O)N[C@@H](CCCCN)C(=O)N[C@@H](CCCNC(=N)N)C(=O)N[C@@H](CCCNC(=N)N)C(=O)N[C@@H](CCC(N)=O)C(=O)N[C@@H](CCCNC(=N)N)C(=O)N[C@@H](CCCNC(=N)N)C(=O)N[C@@H](CCCNC(=N)N)C(=O)NCC(N)=O)C(=O)NCC(N)=O		ELISA	Ai14 mice, cortex injection site	intracortical, dose not given, 3 days		TNF-alpha level	< 1 pg/mL
CC(=O)NCCCC[C@@H]1NC(=O)[C@H](Cc2c[nH]c3c(C)cccc23)NC(=O)[C@H]([C@@H](C)O)NC(=O)[C@H](CC(N)=O)NC(=O)[C@@H](NC(C)=O)C(C)(C)SSC(C)(C)[C@@H](C(=O)N[C@@H](Cc2ccc(OCCN)cc2)C(=O)N[C@@H](Cc2ccc3ccccc3c2)C(=O)NC2(C(=O)N[C@@H](CCC(=O)O)C(=O)N[C@@H](CC(N)=O)C(=O)N[C@@H](Cc3cccnc3)C(=O)N(C)CC(N)=O)CCOCC2)NC1=O		equilibrium dialysis	cynomolgus monkey, plasma	1 µM		plasma protein binding	50.7 ± 0.2%
COCC1CN(C2CCN(c3cc(OC)c(Nc4ncc(Br)c(Nc5ccc6c(c5P(C)(C)=O)OCCO6)n4)cc3C)CC2)C1			EGFR-mutant NSCLC patients	oral, 60 mg once daily		treatment-related AEs leading to death	0%
O=C1NC2(CC2)COc2ncc(F)cc2[C@H]2COCCN2c2ccn3ncc1c3n2			Sprague-Dawley rat, female	oral, 5 mg/kg/day, end of treatment, 4-week repeated-dose toxicity		body weight	353 ± 22.6 g
CC(C)[C@H](NC(=O)[C@@H](NC(=O)[C@H](CCCNC(=N)N)NC(=O)[C@H](CCCNC(=N)N)NC(=O)[C@H](CCCNC(=N)N)NC(=O)[C@H](CCC(N)=O)NC(=O)[C@H](CCCNC(=N)N)NC(=O)[C@H](CCCNC(=N)N)NC(=O)[C@H](CCCCN)NC(=O)[C@H](CCCCN)NC(=O)[C@H](CCCNC(=N)N)NC(=O)CN)[C@@H](C)O)C(=O)N[C@H](C(=O)N[C@@H](CO)C(=O)N1CCC[C@H]1C(=O)O)[C@@H](C)O			ICR mice, female, spleen	intranasal, 5 mg/kg daily, 4 weeks		organ weight	0.074 ± 0.012 g

For quick reference, copied from above:
Structure (SMILES)	target or system	assay	test system	setting	scale	quantity	result
CC(C)C[C@H](NC(=O)[C@H](Cc1ccc(O)cc1)NC(=O)[C@H](C)NC(=O)[C@H](CC(N)=O)NC(=O)[C@H](CC(C)C)NC(=O)[C@H](C)NC(=O)[C@@H](NC(=O)[C@H](CCCCN)NC(=O)CNC(=O)[C@@H](NC(=O)[C@H](CCCCN)NC(=O)[C@H](CCCCN)NC(=O)CNC(=O)[C@@H](NC(=O)[C@H](Cc1c[nH]cn1)NC(=O)[C@@H](NC(=O)[C@H](C)NC(=O)[C@H](CCCCN)NC(=O)[C@H](CCCCN)NC(=O)[C@H](Cc1ccccc1)NC(=O)[C@H](Cc1c[nH]c2ccccc12)NC(=O)[C@H](CCCCN)NC(=O)[C@H](CCCCN)NC(=O)[C@H](CC(C)C)NC(=O)CN)C(C)C)C(C)C)C(C)C)C(C)C)C(N)=O			zebrafish embryos 28 hpf, E3 medium	1 h		acute toxic concentration	5 µM
COCC1CN(C2CCN(c3cc(OC)c(Nc4ncc(Br)c(Nc5ccc6c(c5P(C)(C)=O)OCCO6)n4)cc3C)CC2)C1			EGFR-mutant NSCLC patients	oral, 60 mg once daily		treatment-related AEs leading to death	0%
